Measurements from different studies.
A part holds a random share of what one study measured.

Block 1 — technique: protein binding microarray; form: double-stranded DNA, one strand shown; sample: in vitro; concentration: not given; reference: not given; direction: higher = stronger binding; quantity: E-score
Target: Histone acetyltransferase KAT6A, winged helix 1, GST fusion (KAT6A, Homo sapiens, UniProt Q92794, residues 1-85)
Notes: 8-mer, flanks averaged, mean of 2 arrays, mostly near background
Residues (chain): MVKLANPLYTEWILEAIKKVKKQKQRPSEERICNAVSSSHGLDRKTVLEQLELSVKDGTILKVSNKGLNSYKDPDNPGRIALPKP
Sequence = AAAAATTG; value = -0.19
Sequence = AGAATAAA; value = -0.24
Sequence = CATTTGGC; value = -0.227
Sequence = AAATTGCT; value = -0.14
Sequence = GGTGCACA; value = -0.00986
Sequence = CAGCCTGC; value = -0.063

Block 2 — technique: protein-binding microarray; form: double-stranded DNA, one strand shown; sample: in vitro; concentration: not given; direction: higher = stronger binding; quantity: E-score
Target: TATA-box-binding protein 1 (TBP1, Arabidopsis thaliana, UniProt P28147, residues 1-200, full length assumed)
Notes: k-mer, scored over probes, only values ≥0.25
Residues (chain): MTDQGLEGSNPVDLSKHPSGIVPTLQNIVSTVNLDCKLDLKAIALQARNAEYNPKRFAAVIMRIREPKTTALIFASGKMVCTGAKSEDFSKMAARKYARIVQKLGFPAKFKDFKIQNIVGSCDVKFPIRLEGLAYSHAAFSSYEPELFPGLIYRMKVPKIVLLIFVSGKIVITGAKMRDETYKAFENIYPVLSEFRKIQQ
Sequence = CGATATA; value = 0.377
Sequence = GATAAAA; value = 0.348
Sequence = GGCTTAA; value = 0.312
Sequence = TAAGTAA; value = 0.314
Sequence = ATATTCA; value = 0.36
Sequence = CCTTAAG; value = 0.25

Block 3 — technique: RNA Bind-n-Seq; form: RNA; sample: in vitro; concentration: 20 nM; notes: 6-mer, flanks averaged, single round; together with: 150 mM LiCl; reference: input library; direction: higher = stronger binding; quantity: 6-mer enrichment (R)
Target: TAR DNA-binding protein 43, full length, His tag (TARDBP, Homo sapiens, UniProt Q13148, residues 1-414)
Sequence = CCGAAC; value = 0.827
Sequence = GGUGAC; value = 1.03
Sequence = UGCCAG; value = 0.971
Sequence = CCUUUA; value = 1.01
Sequence = GUUCUA; value = 0.895
Sequence = AGACCG; value = 0.844

Mixed results
Substance = PhoQ, residues 284 288 289 292 302 303 SLSVQF; target = PhoP, residues 12 14 15 18 19 SEGLL (Escherichia coli, UniProt P23836); assay = Sort-seq, refers to: YFP reporter; test system = E. coli; setting = PhoQ-PhoP variant library, together with: 10 µM Mg2+; how to read = reference: high Mg2+ state, higher = stronger signaling; quantity = fold induction; value = 21.2

A few entries again (block 1):
Sequence = AAATTGCT; value = -0.14
Sequence = GGTGCACA; value = -0.00986
